Experimental data of several laboratories.
Compare with care: the assays were run in different laboratories. ± marks the error that the study gave.
UniProt O60656, sequence (whole entry, looked up): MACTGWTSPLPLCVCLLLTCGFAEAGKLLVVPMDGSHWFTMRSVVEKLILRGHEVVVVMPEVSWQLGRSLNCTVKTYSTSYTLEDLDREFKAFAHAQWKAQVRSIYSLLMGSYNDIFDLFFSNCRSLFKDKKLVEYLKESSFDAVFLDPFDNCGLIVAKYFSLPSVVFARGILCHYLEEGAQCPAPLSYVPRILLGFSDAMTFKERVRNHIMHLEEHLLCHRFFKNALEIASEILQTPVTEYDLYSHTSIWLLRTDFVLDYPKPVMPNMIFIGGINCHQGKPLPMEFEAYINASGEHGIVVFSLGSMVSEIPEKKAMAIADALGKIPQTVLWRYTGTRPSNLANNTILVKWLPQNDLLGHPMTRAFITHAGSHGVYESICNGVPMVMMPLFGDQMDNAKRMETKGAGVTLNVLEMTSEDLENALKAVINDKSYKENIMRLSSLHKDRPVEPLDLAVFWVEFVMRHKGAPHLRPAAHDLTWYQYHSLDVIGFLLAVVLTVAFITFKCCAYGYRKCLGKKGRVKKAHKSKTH

Under “muscularis propria thickness”, `cilengitide` is recorded as 100 ± 5 µm (Sprague-Dawley rats, ethanol control, colon; ip, 18 mg/kg/day, 42 d).
`COc1ccc(Nc2c(-c3ccc(S(C)(=O)=O)cc3)nc3ccccn23)cc1` — result for “pain score AUC”: “decreased” (formalin test; male Wistar rat; intraperitoneal, 40 mg/kg; relative to: control group).
For `NCCCCCCNS(=O)(=O)c1cccc2c(Cl)cccc12`, “NMDA-induced PSD-95-CaM binding” read “inhibited” (inhibitor, co-immunoprecipitation; mouse forebrain slices; 20 µM, with: NMDA 100 µM for 5 min).
`CC(=O)Nc1ccc(C2=NNC(=O)C[C@H]2C)cc1` — result for “increase in contraction force”: 334 ± 31 mg (guinea pig papillary muscle; up to 30 µM, with: forskolin 0.1 µM; relative to: baseline).
`insulin lispro` — result for “total glucose infused”: 678 mg/kg (euglycemic clamp; obese type 2 diabetes patients; subcutaneous, 50 units).
The DOPAC level of `CC(C)C[C@H](NC(=O)[C@H](CO)NC(=O)[C@H](CCCNC(=N)N)NC(=O)[C@H](CC(=O)O)NC(=O)[C@H](CCC(=O)O)NC(=O)[C@H](C)NC(=O)[C@@H]1CCCN1C(=O)[C@H](C)NC(=O)[C@H](CCC(=O)O)NC(=O)[C@@H]1CCCN1C(=O)[C@@H]1CCCN1)C(N)=O` is reported as 269 ± 29 ng/g (HPLC-EC; rat F344, normal, substantia nigra; intranasal, 300 µg 5 days per week, 3 weeks).
For `C[C@H]1C[C@@H]2[C@H]([C@@H](O)C[C@@]3(C)[C@H]2CC[C@]3(O)C(=O)CO)[C@@]2(C)C=CC(=O)C=C12`, the steroidogenic AUEC(0-24) was 572 ng·h/mL (human, plasma free; oral, 32 mg daily, day 1, mean, CSG = 5 × MPD + cortisol).
The inhibition of `NYLAWYQ` is reported as 12% (peptide, human polyclonal IgM RF ABR; concentration not given, 5 µg/mL mAb II-481 coated, with: RF at 50% max binding concentration).
With `C[C@H](Nc1ncnc2nc[nH]c12)c1cc2cccc(Cl)c2c(=O)n1-c1ccccc1` the ED50 was 0.09 mg/kg (B cell activation, inhibitor, item: CD86; female Wistar rat, blood; oral, 2 h, with: anti-IgD).
For `C[C@H]1C[C@H]2CSC(N)=N[C@@]2(c2nc(NC(=O)c3ccc(OC(F)F)cn3)cs2)CO1`, “change from baseline” read -86.3% (item: CSF Aβx-40; healthy adults; 275 mg once daily, 14 days, day 15; relative to: placebo-adjusted baseline).
For `O=C1O[C@H]([C@@H](O)CO)C(O)=C1O`, the IC50 was 720 nM (ABTS scavenging, absorbance).
`PACAP` gave a mRNA level of 120 ± 9.1% (item: ADAM17; APP V717I transgenic mice, brain; intranasal, dose not given, 3 months; relative to: vehicle).
For `CC(C)C[C@@H]1NC(=O)[C@H](CCCNC(=N)N)NC(=O)[C@H](Cc2c[nH]c3ccccc23)NC(=O)[C@H](CCCNC(=N)N)NC(=O)CNC(=O)CNC(=O)[C@H](CCCCN)NC(=O)CNC(=O)[C@H](Cc2c[nH]c3ccccc23)NC(=O)[C@H](CC(=O)O)NC(=O)[C@@H](NC(=O)[C@H](CCC(=O)O)NC(=O)[C@H](C)NC(=O)CCCC[C@@H]2SC[C@@H]3NC(=O)N[C@@H]32)CSSC[C@@H](C(=O)NCC(=O)N2CCC[C@H]2C(=O)O)NC(=O)[C@H](C)NC(=O)[C@H](CCC(=O)O)NC(=O)[C@H]([C@@H](C)O)NC(=O)[C@H](CCCCN)NC(=O)CNC(=O)[C@H](CO)NC(=O)[C@H](C)NC(=O)CNC(=O)[C@@H]2CCCN2C(=O)[C@H](Cc2c[nH]c3ccccc23)NC1=O`, “amyloid plaque burden” read 50 ± 7% (thioflavin S, Congo red; APPswe/PSEN1(A246E) mouse, young, brain hippocampus; s.c., once monthly, 5 to 12 months, without adjuvant; relative to: mock-immunized).
For `C#Cc1cc(Oc2cnc(N)nc2N)c(C(C)C)cc1OC`, “reduction of pERK-positive cells” read 46.4 ± 12% (immunohistochemistry; Sprague-Dawley rat, L6 spinal cord; intrathecal, 300 nmol, with: 1% acetic acid in bladder; relative to: vehicle).
Under “lowest effective concentration”, `O=C1c2cccc(O)c2C(=O)c2c(O)cc(CO)cc21` is recorded as 250 to 500 µM (cell proliferation, CellTiter-Glo; cord blood CD34+ cells, human; 24 h, lowest dose with significant inhibition; relative to: vehicle).
`NC(=O)N1c2ccccc2C[C@H](O)c2ccccc21`: “effective brain concentration” 22 µmol/L (mouse; po, 50 mg/kg of eslicarbazepine acetate, 97% protection against MES).
`CC1(C)CCC(CN2CCN(c3ccc(C(=O)NS(=O)(=O)c4ccc(NCC5CCOCC5)c([N+](=O)[O-])c4)c(Oc4cnc5[nH]ccc5c4)c3)CC2)=C(c2ccc(Cl)cc2)C1` has an EC50 of 1140 ± 1550 nM (cell kill, PI exclusion flow cytometry; normal CD21+ B lymphocytes, dog, peripheral blood; 24 h).
`CCOc1ccc(C[C@@H](N)C(=O)N[C@@H](Cc2ccccc2)C(=O)NC2CCN(C(=N)N)CC2)cc1.O=C(O)C(F)(F)F.O=C(O)C(F)(F)F`: “increase in retinal thickness” 16.5 ± 3.8 µm (SD-OCT; mouse, retina; subcutaneous osmotic pump, 1.60 mg/kg/day, 24 h, with: VEGF 100 ng/eye intravitreal; relative to: baseline).
For `UGT1A9 (Homo sapiens, UniProt O60656)`, the Vmax/Km was 586 µL/min/mg (O=c1cc(-c2ccccc2O)oc2cc(O)ccc12; steady-state kinetics; pH 7.4, 37 °C).
`LIYWAST` gave an inhibition of 14% (peptide, human polyclonal IgM RF SOR; concentration not given, 5 µg/mL mAb II-481 coated, with: RF at 50% max binding concentration).
For `Polymyxin B`, the IL-10 release was 53.1 ± 16.8% (human whole blood; 50 ng/mL, 4 h, 37 °C, with: E. coli LPS 0.5 ng/mL; relative to: LPS without compound).
`Cc1c(C(=O)NN2CCCCC2)nn(-c2ccc(Cl)cc2Cl)c1-c1ccc(Cl)cc1` gave a glucose level of 5.32 ± 0.59 mmol/L (rat, diet-induced obese, plasma; peripheral, 10 mg/kg per day, 6 days).
With `CS/C(S)=N/CCCC[S+](C)[O-]` (racemic) the mRNA level was 14.9 fold (item: carbohydrate sulfotransferase 1; rat, mammary gland; oral gavage, 200 mg/kg, 4 days daily; relative to: vehicle).
`Cc1ccc(NC(=O)c2ccc(CN3CCN(C)CC3)cc2)cc1Nc1nccc(-c2cncc(-c3oncc3C)c2)n1`: “MDS-UPDRS part II score” 8.4 ± 3.9 (mild-to-moderate Parkinson's disease patients; oral, 100 mg once daily, pre-dose baseline, on anti-Parkinson medication; direction not given).
For `COCCSc1nnc(C23CC4CC(CC(C4)C2)C3)n1-c1ccccc1`, “inhibition in vivo” read 2.53% (paw oedema; rat; intraperitoneal, 20 mg/kg).
`O=C(/C=C/c1ccc(O)c(O)c1)O[C@H](Cc1ccc(O)c(O)c1)C(=O)O` — result for “CUPRAC antioxidant capacity”: 608.2 ± 1.2 (CUPRAC; unit not given; relative to: Trolox).
`AGEDPHGYFLPGQFA`: “maximal effective dose” 8 pg/mouse (neutrophil and monocyte recruitment; peptide, C57BL/6J mouse, zymosan peritonitis; ip, 1 h before zymosan).
`KSPNPRF (Cy5.5-labelled)` gave a fluorescence ratio of 5.03 fold (ex vivo fluorescence imaging; peptide, CPC;Apc mouse, excised colon adenoma; iv, 200 µL of 300 µM, Cy5.5 labelled; relative to: adenoma over normal mucosa).
For `Cn1c(-c2ccc(Br)s2)nc2cc(-c3nnc(-c4cc(-c5ccc(Cl)cc5Cl)nc5ccccc45)o3)ccc21`, “plasma recalcification time” read 545 s (human platelet-poor plasma; concentration not given).
Under “concentration for maximal Cl− secretion”, `COc1ccc2ccc(=O)oc2c1CC=C(C)C` is recorded as 5 µmol/L (short-circuit current; rat distal colonic mucosa; mucosal and serosal application, with: amiloride and indomethacin 10 µmol/L).
`Cn1cnc(C[C@H](NC(=O)[C@@H]2CCC(=O)C2)C(=O)N2CCC[C@H]2C(N)=O)c1` gave a sleeping time of 28.2 ± 1.7 min (Swiss albino mice; intravenous, 10 µmol/kg, with: pentobarbital 50 mg/kg i.p. 10 min later).
`C[C@]1(c2nc3c(C(N)=O)cccc3[nH]2)CCCN1` — result for “PAR level decrease”: ≥ 50% (item: poly(ADP-ribose); PBMC, cancer patients; dose not given, 504 h, day 21 cycle 1, with: cyclophosphamide; relative to: baseline).
With `GAGUUGAGUUGAGUUGAGUUGAGUUGAGUUGAGUUGAGUUGAGUUGAGUUGAGUU (ssRNA; single strand)` the Kd was 1 ± 0.5 nM (mtrB full length assumed T30S (Bacillus subtilis, UniProt P19466); filter binding; with: L-tryptophan 1 mM).
For `CC(=O)O[C@@]12CO[C@@H]1C[C@H](O)[C@@]1(C)C(=O)[C@H](O)C3=C(C)[C@@H](OC(=O)[C@H](O)[C@@H](NC(=O)OC(C)(C)C)c4ccccc4)C[C@@](O)([C@@H](OC(=O)c4ccccc4)[C@H]21)C3(C)C`, the tumour volume was 78.8 ± 16 mm3 (mouse, PC-3 xenograft; 5 mg/kg once weekly for 3 weeks, day 11 after inoculation, started after 2 weeks growth).
With `Cn1cncc1-c1c(F)cncc1NC(=O)c1c(N)nn2cc(F)cnc12` the inhibition was > 80% (flow cytometry, item: γ-H2AX; patients, PBMC; oral, 130 mg once daily or higher, 3 h after first dose, with: 4-NQO ex vivo).

For quick reference, copied from above:
Under “lowest effective concentration”, `O=C1c2cccc(O)c2C(=O)c2c(O)cc(CO)cc21` is recorded as 250 to 500 µM (cell proliferation, CellTiter-Glo; cord blood CD34+ cells, human; 24 h, lowest dose with significant inhibition; relative to: vehicle).
`NC(=O)N1c2ccccc2C[C@H](O)c2ccccc21`: “effective brain concentration” 22 µmol/L (mouse; po, 50 mg/kg of eslicarbazepine acetate, 97% protection against MES).
`CC1(C)CCC(CN2CCN(c3ccc(C(=O)NS(=O)(=O)c4ccc(NCC5CCOCC5)c([N+](=O)[O-])c4)c(Oc4cnc5[nH]ccc5c4)c3)CC2)=C(c2ccc(Cl)cc2)C1` has an EC50 of 1140 ± 1550 nM (cell kill, PI exclusion flow cytometry; normal CD21+ B lymphocytes, dog, peripheral blood; 24 h).
